Published values gathered from unrelated publications.
Every numbered part comes from another study and shows a few of its results, in no order. Substitutions count along the parent as printed.

Sample 1 — target: ATF3, bZIP domain (human); method: DHFR protein complementation; matrix: yeast; relative to: wild-type JUN-FOS pair; direction: higher = stronger binding; measurement: binding fitness
Setting: single substitutions, most at no-binding floor
Starting sequence: JUN, bZIP domain (human); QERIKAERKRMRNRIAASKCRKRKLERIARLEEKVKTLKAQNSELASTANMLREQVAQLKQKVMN; partner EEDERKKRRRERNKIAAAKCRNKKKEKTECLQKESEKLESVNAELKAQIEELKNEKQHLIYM
K34N: -0.288 natural log
I28G: -0.117 natural log
Q55P: -1.08 natural log
S47C: -0.108 natural log
M51W: -0.324 natural log
E54N: -0.268 natural log
V35K: -0.87 natural log
K34H: 0.00943 natural log
I28Q: -0.0828 natural log
V56S: -1.42 natural log
I28D: -0.322 natural log

Sample 2 — method: DHFR PCA, deep sequencing; matrix: yeast; with: (+)-ABA 710 µM; relative to: wild-type fitted maximum; direction: higher = stronger binding; measurement: relative binding score
Target: ABI1, truncated, D143A, DHFR fusion (Arabidopsis thaliana)
Setting: methotrexate growth selection, single substitutions
Starting sequence: PYL1, truncated, DHFR fusion (Arabidopsis thaliana); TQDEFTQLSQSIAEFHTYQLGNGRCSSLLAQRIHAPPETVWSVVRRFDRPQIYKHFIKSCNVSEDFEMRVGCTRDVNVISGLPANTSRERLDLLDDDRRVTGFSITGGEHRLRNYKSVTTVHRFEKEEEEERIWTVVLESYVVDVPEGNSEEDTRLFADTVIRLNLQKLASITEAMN; partner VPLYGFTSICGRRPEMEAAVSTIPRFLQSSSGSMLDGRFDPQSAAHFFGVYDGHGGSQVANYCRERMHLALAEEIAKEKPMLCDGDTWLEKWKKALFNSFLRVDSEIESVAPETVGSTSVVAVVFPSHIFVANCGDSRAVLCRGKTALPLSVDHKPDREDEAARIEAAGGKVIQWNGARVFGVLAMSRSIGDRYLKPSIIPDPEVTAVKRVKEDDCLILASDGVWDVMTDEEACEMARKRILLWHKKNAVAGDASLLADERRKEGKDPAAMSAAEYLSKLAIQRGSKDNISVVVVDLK
V43R: 80.3%
L8H: 74.9%
R123V: 99%
Q7G: 107%
R90K: 105%
E147H: 101%
Q51G: 92%
S59K: 96.4%
F66H: 100%
H34M: 93.7%
T101R: -0.971%
T120I: 2.92%
G107E: 90.7%
R32G: 81%
N149P: 17.5%

Sample 3 — target: CCNB2, cyclin fold, Cln2 fusion (human); method: yeast growth competition, sequencing; matrix: yeast; setting: weak parent motif; relative to: not given; direction: higher = stronger binding; measurement: normalised enrichment score
Starting sequence: RBL2 docking peptide (human); STTRRRLFVENDS; partner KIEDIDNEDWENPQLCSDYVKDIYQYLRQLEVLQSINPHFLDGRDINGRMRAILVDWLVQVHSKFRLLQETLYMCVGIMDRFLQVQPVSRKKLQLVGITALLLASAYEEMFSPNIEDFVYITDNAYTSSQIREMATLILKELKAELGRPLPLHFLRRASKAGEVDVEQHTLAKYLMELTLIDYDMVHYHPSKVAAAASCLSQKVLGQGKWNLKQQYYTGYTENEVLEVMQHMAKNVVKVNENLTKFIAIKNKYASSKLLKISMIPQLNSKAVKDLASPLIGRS
R4K: 0.172
L7R: 0.273
D12S: 0.397
D12K: 0.802
V9S: 0.255
S1Q: 0.123
R6N: -0.0794
R4M: -0.422
T3E: -0.463
T3G: 0.769
D12P: 0.322
D12A: -0.128
S13A: 0.211

Other studies, line by line
PhoQ, residues 284 288 289 292 302 303 NLGVHL  fold induction (PhoP, residues 12 14 15 18 19 NHFRA (Escherichia coli, UniProt P23836); Sort-seq, refers to: YFP reporter; E. coli; PhoQ-PhoP variant library, with: 10 µM Mg2+; relative to: high Mg2+ state, higher = stronger signaling): 9.23
